Measurements gathered from unrelated publications.
Lines come from different studies, so protocols differ. Several values in a cell are separate wells, animals, samples, runs or records. Numbers after ± are the reported error.

SMILES = CC(CCC(=O)NCc1ccc(C(=O)NO)cc1)C1CCC2C3C(O)CC4CC(O)CCC4(C)C3CCC12C (stereo not shown); test = refers to: TCA; system = PCK rat (Pkhd1 mutant), liver; setting = oral gavage, dose not given, 5 months; scale = reference: total bile acids; quantity = relative abundance; result = 49.7%
SMILES = Cc1cc2cc(C(=O)N(Cc3ccc(C(F)(F)F)cn3)[C@H](C)c3ncccn3)ccc2nc1N; test = ELISA, refers to: SDMA; system = mouse, HCT-116 MTAP-deleted xenograft, tumour; setting = oral, 100 mg/kg once daily, 11 doses, 4 h after last dose; scale = reference: vehicle; quantity = inhibition; result = 89%
SMILES = COC1OC(C)C(OS(=O)(=O)O)C(OC2OC(C)C(OS(=O)(=O)O)C(OC3OC(C)C(OS(=O)(=O)O)C(OC4OC(C)C(OS(=O)(=O)O)C(OC5OC(C)C(OS(=O)(=O)O)C(OC6OC(C)C(OS(=O)(=O)O)C(OC7OC(C)C(OS(=O)(=O)O)C(OC8OC(C)C(OS(=O)(=O)O)C(OC9OC(C)C(OS(=O)(=O)O)C(OC%10OC(C)C(OS(=O)(=O)O)C(OS(=O)(=O)O)C%10O)C9O)C8O)C7O)C6O)C5O)C4O)C3O)C2O)C1O (stereo not shown); system = human plasma; setting = 128 µg/mL; scale = reference: control; quantity = APTT prolongation; result = 1.3 fold
SMILES = CCCCCCCCCCCCCCCC(=O)OCC(CSC[C@H](N)C(=O)N[C@@H](CO)C(=O)N[C@@H](CCCCN)C(=O)N[C@@H](CCCCN)C(=O)N[C@@H](CCCCN)C(=O)N[C@@H](CCCCN)C(=O)NCCCCCC(=O)N[C@@H](CCCCN)C(=O)N[C@@H](CC(C)C)C(=O)N[C@H](C(=O)N[C@@H](Cc1ccccc1)C(=O)N[C@@H](Cc1ccccc1)C(=O)N[C@@H](Cc1ccc2ccccc2c1)C(=O)O)C(C)C)OC(=O)CCCCCCCCCCCCCCC (stereo partly shown); system = APP/PS1 mouse, hippocampus; setting = local injection, dose not given, unit not given; scale = reference: injected over adjacent side; quantity = GFAP level; result = 0.948 and 3.89 and 1.14 and 0.946 and 4.04
SMILES = OC(COc1ccc2cc(Br)ccc2c1)Cn1ccnc1 (stereo not shown); target or system = Trypanosoma cruzi; test = reporter mRNA translation, inhibitor, refers to: Renilla luciferase mRNA; system = cell-free extract; setting = concentration not given, test 2; scale = reference: positive over negative control; quantity = translation activity; result = 113%
SMILES = COCCOCCOCCNC(=O)Cc1cc(CC(=O)N[C@H]2C[C@H]3C(=O)Nc4cc(OCCOCCOCCOC)cc(n4)C(=O)N4CCC[C@H]4C(=O)Nc4cc(OCCOCCOCCOC)cc(n4)C(=O)N4CCC[C@H]4C(=O)Nc4cc(OCCOCCOCCOC)cc(n4)C(=O)N3C2)cc(CC(=O)N[C@H]2C[C@H]3C(=O)Nc4cc(OCCOCCOCCOC)cc(n4)C(=O)N4CCC[C@H]4C(=O)Nc4cc(OCCOCCOCCOC)cc(n4)C(=O)N4CCC[C@H]4C(=O)Nc4cc(OCCOCCOCCOC)cc(n4)C(=O)N3C2)c1; test = anion binding, ITC; system = water/acetonitrile 95 vol% (98.2 mol%); setting = 298 K, added: sodium sulfate; quantity = ΔG; result = -5.43 ± 0.0717 kcal/mol
SMILES = COc1cc2c(NC3CCN(C(C)C)CC3)cc(N3CCOCC3)nc2cc1OCCCN1CCCC1; test = TMT proteomics, refers to: PGAM1; system = 5xFAD mice, hippocampus; setting = dose not given; scale = reference: wild-type mice; quantity = log2 fold change; result = -0.0339
SMILES = COc1ccc(NC(=O)c2ccc3[nH]c(-c4ccc(N(C)C)cc4)nc3c2)cn1; system = Lewis lung carcinoma, mice, syngeneic graft, subcutaneous; setting = intraperitoneal, 50 mg/kg daily, day 10; quantity = tumour volume; result = 51.5 mm3 and 345 mm3 and 565 mm3 and 425 mm3 and 167 mm3
SMILES = COC1OC(C)C(OC2OC(C)C(OS(=O)(=O)O)C(OC3OC(C)C(OC4OC(C)C(OS(=O)(=O)O)C(OC5OC(C)C(OC6OC(C)C(OS(=O)(=O)O)C(OC7OC(C)C(OC8OC(C)C(OS(=O)(=O)O)C(OC9OC(C)C(OC%10OC(C)C(OS(=O)(=O)O)C(OC%11OC(C)C(OS(=O)(=O)O)C(OS(=O)(=O)O)C%11O)C%10O)C(OS(=O)(=O)O)C9O)C8O)C(OS(=O)(=O)O)C7O)C6O)C(OS(=O)(=O)O)C5O)C4O)C(OS(=O)(=O)O)C3O)C2O)C(OS(=O)(=O)O)C1O (stereo not shown); system = human plasma; setting = 128 µg/mL; scale = reference: control; quantity = APTT prolongation; result = 1.4 fold
SMILES = CC(=O)[O-].O.O.O.O.[Mn+2].[O-]c1ccc(Br)cc1C=NCCN1CCOCC1; test = DPPH radical scavenging; setting = 80 µM; quantity = inhibition; result = 20.9%
SMILES = COc1cc(O)ccc1CCC(c1ccc(O)cc1)c1cc2c(c(C)c1O)OC(c1ccc(O)cc1)CC2 (mixture of isomers); test = refers to: 17-HDHA; system = human whole blood; setting = 30 µM, added: Escherichia coli; quantity = amount; result = 598 ± 167 pg/mL blood
SMILES = CCCC[C@@H](CSS(=O)(=O)O)NCCC; system = Swiss Webster mice, Schistosoma mansoni infected; setting = 100 mg/kg; scale = reference: vehicle control; quantity = spleen weight decrease; result = 16%
SMILES = NC[C@@H](C(=O)Nc1ccc(-c2cn[nH]c2)cc1)c1ccccc1; test = tonometry; system = NZW rabbit, magnetic bead-induced ocular hypertension; setting = ocular, 0.03%, 0 h; quantity = IOP; result = 35.6 mmHg
SMILES = COC1CN([C@H]2CC[C@H]([C@@]3(C)Oc4c(Cl)cc(C(=O)NCc5c(SC)cc(C)[nH]c5=O)c(C)c4O3)CC2)C1; test = RNA-seq, refers to: XKR6; system = human, whole blood; setting = dose not given, 24 h; scale = reference: pretreatment baseline; quantity = log2 fold change; result = 1.99
SMILES = COc1ccc(S(=O)(=O)N2CCc3ccccc3C2)cc1N1CCN(C(=O)c2ccc(F)cc2C(F)(F)F)CC1; test = stereology, optical fractionator, refers to: tyrosine hydroxylase; system = rat, 6-OHDA lesion model, substantia nigra pars compacta, lesioned side; setting = 0.3 µg/24 h; quantity = TH-immunoreactive cell number; result = 59.9 ± 13.6
SMILES = COC1OC(C)C(OC2OC(C)C(OS(=O)(=O)O)C(OC3OC(C)C(OC4OC(C)C(OS(=O)(=O)O)C(OC5OC(C)C(OC6OC(C)C(OS(=O)(=O)O)C(OC7OC(C)C(OC8OC(C)C(OS(=O)(=O)O)C(OC9OC(C)C(OS(=O)(=O)O)C(OS(=O)(=O)O)C9O)C8O)C(OS(=O)(=O)O)C7O)C6O)C(OS(=O)(=O)O)C5O)C4O)C(OS(=O)(=O)O)C3O)C2O)C(OS(=O)(=O)O)C1O (stereo not shown); system = human plasma; setting = 128 µg/mL; scale = reference: control; quantity = APTT prolongation; result = 1.3 fold
SMILES = CN1CCC(N[C@@H]2CCc3[nH]c4c(C(N)=O)ccc(-c5ccccc5Cl)c4c3C2)CC1; test = organoid viability, CellTiter-Glo 3D; system = sample D colorectal cancer organoid, human; setting = 6 days; quantity = IC50; result = 8.46 nM
SMILES = CC(C)C[C@H](NC(=O)CNC(=O)[C@H](CCC(N)=O)NC(=O)[C@H](CC(C)C)NC(=O)[C@H](CC(C)C)NC(=O)[C@H](CCCNC(=N)N)NC(=O)[C@H](CCC(N)=O)NC(=O)[C@H](CC(C)C)NC(=O)[C@H](CCCNC(=N)N)NC(=O)[C@H](C)NC(=O)CNC(=O)[C@H](CCC(=O)O)NC(=O)[C@H](CCCNC(=N)N)NC(=O)[C@H](CC(C)C)NC(=O)[C@H](CCCNC(=N)N)NC(=O)[C@H](CO)NC(=O)[C@H](CC(C)C)NC(=O)[C@H](CCC(=O)O)NC(=O)[C@H](CO)NC(=O)[C@@H](NC(=O)[C@H](Cc1ccccc1)NC(=O)[C@@H](NC(=O)CNC(=O)[C@H](CC(=O)O)NC(=O)C(C)(C)NC(=O)[C@@H](N)Cc1c[nH]cn1)[C@@H](C)O)[C@@H](C)O)C(=O)N[C@@H](CC(C)C)C(=O)N[C@@H](CCC(N)=O)C(=O)NCC(=O)N[C@@H](CC(C)C)C(=O)N[C@H](C(=O)NCC(=O)N[C@@H](CCCCNC(=O)COCCOCCNC(=O)COCCOCCNC(=O)CC[C@H](NC(=O)CCCCCCCCCCCCCCCCC(=O)O)C(=O)O)C(N)=O)C(C)C; system = DIO C57BL/6J mice; setting = sc, 300 nmol/kg twice daily, day 8; quantity = lean mass; result = no effect
SMILES = O=Cc1ccc2cccc(O)c2n1; test = HPLC-MS; setting = pH 10.2, added: 50 mM N-α-acetyl-lysine; quantity = pseudo-first-order rate constant; result = 0 h⁻¹
SMILES = COc1c(Cl)cccc1Nc1c(-c2ccncc2C#C[C@@]2(C)CCCN2C(=O)/C=C/CN(C)C)[nH]c2c1C(=O)NCC2; system = female BALB/c nude mouse, sample A PDX; setting = 50 mg/kg once daily, 28 days, EGFR ASV; quantity = tumour regression; result = 36.9%
SMILES = COC1OC(C)C(O)C(OC2OC(C)C(O)C(OC3OC(C)C(O)C(OC4OC(C)C(O)C(OC5OC(C)C(O)C(OC6OC(C)C(O)C(OC7OC(C)C(O)C(OC8OC(C)C(O)C(OC9OC(C)C(O)C(OC%10OC(C)C(O)C(OC%11OC(C)C(O)C(OS(=O)(=O)O)C%11OS(=O)(=O)O)C%10OS(=O)(=O)O)C9OS(=O)(=O)O)C8OS(=O)(=O)O)C7OS(=O)(=O)O)C6OS(=O)(=O)O)C5OS(=O)(=O)O)C4OS(=O)(=O)O)C3OS(=O)(=O)O)C2OS(=O)(=O)O)C1OS(=O)(=O)O (stereo not shown); system = human plasma; setting = 128 µg/mL; scale = reference: control; quantity = APTT prolongation; result = 1.3 fold
SMILES = CN1CCC[C@]1(C)/C=C/S(=O)(=O)NC(=O)Nc1c2c(cc3c1CCC3)CCC2; system = human, whole blood ex vivo; setting = 400 mg single dose, 3 h, single ascending dose, added: LPS and ATP; quantity = IL-18 inhibition; result = 84.1%
SMILES = COC1OC(C)C(OC2OC(C)C(OS(=O)(=O)O)C(OC3OC(C)C(OS(=O)(=O)O)C(OS(=O)(=O)O)C3O)C2O)C(OS(=O)(=O)O)C1O (stereo not shown); system = human plasma; setting = 128 µg/mL; scale = reference: control; quantity = APTT prolongation; result = 1.1 fold
SMILES = CCCCCc1ccc(S(=O)(=O)N2CC2C(=O)OC)cc1 (stereo not shown); system = mouse, Lewis lung carcinoma; setting = intraperitoneal, 5 mg/kg, 16 doses, day 15; quantity = tumour volume; result = 589 mm3
SMILES = O=[N+]([O-])c1cc(Br)cc([N+](=O)[O-])c1NS(=O)(=O)c1ccc(Br)cc1; test = RNA-seq, refers to: AT1G05680; system = Arabidopsis thaliana Col seedlings; setting = dose not given; scale = reference: DMSO; quantity = log2 fold change; result = 3.52
SMILES = CC(C)OC(=O)[C@H](CO)NCc1cc(Cl)c(OCc2cccc(-c3ccccc3)c2Br)cc1OCc1cccnc1; system = hPD-L1 MC-38 tumour, humanised hPD-1 C57BL/6 mouse; setting = oral, 5 mg/kg × 21, day 1, baseline; quantity = tumour volume; result = 126 ± 14.9 mm³
SMILES = CN1CCCNC(=O)c2cccc(c2)C(=O)NCCCN(C)CCCNc2cccc3c2C(=O)c2cccc(c2C3=O)NCCC1; target or system = SAS; test = RNA-Seq, refers to: FARP2 mRNA; setting = 1 µM, 6 h; scale = reference: untreated cells; quantity = log2 fold change; result = -0.82
SMILES = COc1ccccc1/C=C/CN1CCCC(CCC(=O)NCc2ccccc2F)C1 (stereo not shown); target or system = Trypanosoma cruzi; test = reporter mRNA translation, inhibitor, refers to: Renilla luciferase mRNA; system = cell-free extract; setting = concentration not given, test 1; scale = reference: positive over negative control; quantity = translation activity; result = 106% and 117%
SMILES = COC1OC(C)C(O)C(OC2OC(C)C(O)C(OS(=O)(=O)O)C2OS(=O)(=O)O)C1OS(=O)(=O)O (stereo not shown); system = human plasma; setting = 128 µg/mL; scale = reference: control; quantity = APTT prolongation; result = 1.1 fold
SMILES = O=CC1C(=O)Nc2ccccc21 (stereo not shown); test = HPLC-MS; setting = pH 10.2, added: 50 mM N-α-acetyl-lysine; quantity = pseudo-first-order rate constant; result = 0 h⁻¹
SMILES = Oc1cccc(C2NCCc3cc(O)c(O)cc32)c1 (stereo not shown); test = ferrozine; system = cell-free; setting = 100 µM, DMSO solvent; quantity = Fe2+ chelation; result = 91.3 ± 1.19%
SMILES = CCCCCCCCN(CCC(=O)Nc1ccccc1)C(=O)c1ccccn1; test = immunofluorescence; system = Lmna G609G/G609G progeroid mice, aortic arch; setting = dose not given; scale = reference: vehicle; quantity = perivascular WGA deposition; result = 25%
SMILES = COc1ccc(C(=O)CCc2cc(C(CCc3ccc(O)cc3OC)c3ccc(O)cc3)c(O)cc2OC)cc1 (racemic); system = human blood; setting = 3 µM, added: A23187; quantity = arachidonic acid level; result = 123000 ± 20500 pg/mL
SMILES = COc1cc(C2NCCc3cc(O)c(O)cc32)cc(OC)c1OC (stereo not shown); test = ferrozine; system = cell-free; setting = 100 µM, DMSO solvent; quantity = Fe2+ chelation; result = 92.85 ± 0.36%

A few entries again:
SMILES = CC(=O)[O-].O.O.O.O.[Mn+2].[O-]c1ccc(Br)cc1C=NCCN1CCOCC1; test = DPPH radical scavenging; setting = 80 µM; quantity = inhibition; result = 20.9%
SMILES = COc1cc(O)ccc1CCC(c1ccc(O)cc1)c1cc2c(c(C)c1O)OC(c1ccc(O)cc1)CC2 (mixture of isomers); test = refers to: 17-HDHA; system = human whole blood; setting = 30 µM, added: Escherichia coli; quantity = amount; result = 598 ± 167 pg/mL blood
SMILES = CCCC[C@@H](CSS(=O)(=O)O)NCCC; system = Swiss Webster mice, Schistosoma mansoni infected; setting = 100 mg/kg; scale = reference: vehicle control; quantity = spleen weight decrease; result = 16%
SMILES = NC[C@@H](C(=O)Nc1ccc(-c2cn[nH]c2)cc1)c1ccccc1; test = tonometry; system = NZW rabbit, magnetic bead-induced ocular hypertension; setting = ocular, 0.03%, 0 h; quantity = IOP; result = 35.6 mmHg
